Measured values of several laboratories.
Protocols differ between the studies behind these lines. ± gives the spread as reported.
Chain of UniProt P12004 (whole entry, looked up): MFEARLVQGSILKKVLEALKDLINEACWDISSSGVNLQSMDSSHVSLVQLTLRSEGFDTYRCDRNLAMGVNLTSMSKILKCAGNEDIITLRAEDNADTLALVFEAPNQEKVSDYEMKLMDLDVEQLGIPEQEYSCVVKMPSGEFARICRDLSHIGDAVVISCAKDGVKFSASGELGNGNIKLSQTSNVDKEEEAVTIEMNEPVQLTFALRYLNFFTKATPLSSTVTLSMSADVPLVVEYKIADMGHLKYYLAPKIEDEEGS
Chain of UniProt P00691 (whole entry, looked up): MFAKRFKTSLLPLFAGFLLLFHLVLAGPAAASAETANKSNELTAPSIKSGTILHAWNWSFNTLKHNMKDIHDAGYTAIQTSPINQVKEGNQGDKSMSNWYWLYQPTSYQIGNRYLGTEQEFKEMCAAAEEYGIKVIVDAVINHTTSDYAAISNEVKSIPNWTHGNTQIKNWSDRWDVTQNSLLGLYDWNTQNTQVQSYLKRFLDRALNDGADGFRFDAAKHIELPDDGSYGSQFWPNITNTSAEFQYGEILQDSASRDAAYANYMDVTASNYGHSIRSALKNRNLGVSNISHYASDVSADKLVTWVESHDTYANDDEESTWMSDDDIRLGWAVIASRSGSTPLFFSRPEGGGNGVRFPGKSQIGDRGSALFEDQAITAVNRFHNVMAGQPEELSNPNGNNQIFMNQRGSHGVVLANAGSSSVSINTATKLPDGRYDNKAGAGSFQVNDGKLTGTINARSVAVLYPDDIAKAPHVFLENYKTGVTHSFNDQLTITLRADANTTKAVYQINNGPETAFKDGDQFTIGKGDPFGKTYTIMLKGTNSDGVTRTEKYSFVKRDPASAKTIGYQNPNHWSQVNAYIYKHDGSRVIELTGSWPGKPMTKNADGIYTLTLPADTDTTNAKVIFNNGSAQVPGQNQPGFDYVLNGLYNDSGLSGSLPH
Chain of UniProt Q39204 (whole entry, looked up): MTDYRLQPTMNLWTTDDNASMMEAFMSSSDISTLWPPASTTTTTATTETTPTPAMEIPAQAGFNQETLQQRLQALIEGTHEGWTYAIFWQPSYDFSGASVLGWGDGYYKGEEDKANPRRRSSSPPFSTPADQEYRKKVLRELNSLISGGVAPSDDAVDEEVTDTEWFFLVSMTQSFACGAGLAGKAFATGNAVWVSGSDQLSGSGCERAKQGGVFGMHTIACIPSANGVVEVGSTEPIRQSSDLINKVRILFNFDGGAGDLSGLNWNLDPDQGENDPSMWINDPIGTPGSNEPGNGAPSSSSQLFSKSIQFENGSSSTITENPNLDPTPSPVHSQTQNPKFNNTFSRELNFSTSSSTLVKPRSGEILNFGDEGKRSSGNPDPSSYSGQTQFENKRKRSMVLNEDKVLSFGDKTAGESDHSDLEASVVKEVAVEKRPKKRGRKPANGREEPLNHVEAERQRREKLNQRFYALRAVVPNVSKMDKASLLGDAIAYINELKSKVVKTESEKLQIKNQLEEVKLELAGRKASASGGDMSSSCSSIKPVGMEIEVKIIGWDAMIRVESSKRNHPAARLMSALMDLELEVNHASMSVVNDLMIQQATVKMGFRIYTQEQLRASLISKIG
Chain of UniProt Q08460 (whole entry, looked up): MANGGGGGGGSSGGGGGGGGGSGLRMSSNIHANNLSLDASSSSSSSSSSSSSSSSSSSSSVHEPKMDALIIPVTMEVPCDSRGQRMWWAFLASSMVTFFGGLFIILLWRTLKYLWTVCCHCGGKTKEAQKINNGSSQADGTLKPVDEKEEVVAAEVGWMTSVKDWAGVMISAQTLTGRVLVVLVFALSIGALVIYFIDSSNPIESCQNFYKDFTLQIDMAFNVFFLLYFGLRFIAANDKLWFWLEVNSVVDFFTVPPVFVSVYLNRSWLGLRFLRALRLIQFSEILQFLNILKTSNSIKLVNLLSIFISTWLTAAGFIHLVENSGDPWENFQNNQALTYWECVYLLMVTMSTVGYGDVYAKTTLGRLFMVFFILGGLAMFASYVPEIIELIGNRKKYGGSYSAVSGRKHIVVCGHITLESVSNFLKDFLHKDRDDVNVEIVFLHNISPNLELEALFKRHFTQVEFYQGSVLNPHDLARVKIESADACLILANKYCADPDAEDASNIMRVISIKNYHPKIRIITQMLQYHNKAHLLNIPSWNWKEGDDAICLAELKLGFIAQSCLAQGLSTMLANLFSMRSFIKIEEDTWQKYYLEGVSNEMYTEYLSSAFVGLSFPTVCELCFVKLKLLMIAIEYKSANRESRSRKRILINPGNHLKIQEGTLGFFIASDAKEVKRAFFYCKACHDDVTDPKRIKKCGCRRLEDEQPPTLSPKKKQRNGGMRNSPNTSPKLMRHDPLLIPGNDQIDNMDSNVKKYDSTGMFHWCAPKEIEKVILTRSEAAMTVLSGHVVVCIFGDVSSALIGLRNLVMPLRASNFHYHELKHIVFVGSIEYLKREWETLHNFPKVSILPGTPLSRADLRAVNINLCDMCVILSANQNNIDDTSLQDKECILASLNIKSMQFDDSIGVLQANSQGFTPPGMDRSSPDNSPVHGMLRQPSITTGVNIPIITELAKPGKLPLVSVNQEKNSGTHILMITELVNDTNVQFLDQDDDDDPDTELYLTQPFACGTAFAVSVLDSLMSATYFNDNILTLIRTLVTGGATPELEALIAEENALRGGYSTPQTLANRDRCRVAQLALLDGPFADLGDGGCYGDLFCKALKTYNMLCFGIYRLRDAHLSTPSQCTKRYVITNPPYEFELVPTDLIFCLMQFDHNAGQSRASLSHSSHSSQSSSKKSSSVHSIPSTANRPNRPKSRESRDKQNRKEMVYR
Chain of UniProt O66465 (whole entry, unmodified, looked up): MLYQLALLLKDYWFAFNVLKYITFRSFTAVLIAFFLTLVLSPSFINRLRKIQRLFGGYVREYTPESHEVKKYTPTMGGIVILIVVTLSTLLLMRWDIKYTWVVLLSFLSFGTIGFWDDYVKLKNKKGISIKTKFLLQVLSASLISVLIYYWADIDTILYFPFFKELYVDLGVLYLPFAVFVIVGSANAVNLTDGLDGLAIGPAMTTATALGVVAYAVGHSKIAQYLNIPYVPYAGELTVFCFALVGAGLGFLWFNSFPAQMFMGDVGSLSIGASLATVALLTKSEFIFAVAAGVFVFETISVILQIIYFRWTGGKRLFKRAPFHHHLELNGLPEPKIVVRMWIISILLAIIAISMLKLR
Chain of UniProt Q15109 (whole entry, looked up): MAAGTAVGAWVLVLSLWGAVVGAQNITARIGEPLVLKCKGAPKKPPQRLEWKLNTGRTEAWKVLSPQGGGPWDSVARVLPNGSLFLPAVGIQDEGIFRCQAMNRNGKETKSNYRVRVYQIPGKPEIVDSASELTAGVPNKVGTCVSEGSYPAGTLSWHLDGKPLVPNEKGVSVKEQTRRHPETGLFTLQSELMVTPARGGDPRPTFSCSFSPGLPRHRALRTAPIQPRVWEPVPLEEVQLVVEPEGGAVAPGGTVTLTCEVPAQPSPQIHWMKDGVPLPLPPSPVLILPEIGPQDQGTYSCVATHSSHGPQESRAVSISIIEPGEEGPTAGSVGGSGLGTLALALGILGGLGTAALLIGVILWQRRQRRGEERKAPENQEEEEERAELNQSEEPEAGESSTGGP
Chain of UniProt Q13705 (whole entry, looked up): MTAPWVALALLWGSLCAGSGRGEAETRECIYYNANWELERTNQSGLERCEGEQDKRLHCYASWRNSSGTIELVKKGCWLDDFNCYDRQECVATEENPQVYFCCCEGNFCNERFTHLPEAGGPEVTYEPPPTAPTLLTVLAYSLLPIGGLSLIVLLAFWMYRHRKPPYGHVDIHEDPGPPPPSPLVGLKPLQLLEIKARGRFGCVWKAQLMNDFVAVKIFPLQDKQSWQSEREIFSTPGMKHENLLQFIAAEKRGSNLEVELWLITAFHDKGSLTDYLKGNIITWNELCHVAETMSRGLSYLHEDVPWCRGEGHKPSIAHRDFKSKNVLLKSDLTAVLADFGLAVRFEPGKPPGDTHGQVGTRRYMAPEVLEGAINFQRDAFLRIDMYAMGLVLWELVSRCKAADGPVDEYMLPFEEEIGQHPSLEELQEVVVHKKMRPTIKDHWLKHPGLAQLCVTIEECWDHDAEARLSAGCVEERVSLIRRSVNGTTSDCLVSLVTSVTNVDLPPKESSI
Chain of UniProt O35082 (whole entry, looked up): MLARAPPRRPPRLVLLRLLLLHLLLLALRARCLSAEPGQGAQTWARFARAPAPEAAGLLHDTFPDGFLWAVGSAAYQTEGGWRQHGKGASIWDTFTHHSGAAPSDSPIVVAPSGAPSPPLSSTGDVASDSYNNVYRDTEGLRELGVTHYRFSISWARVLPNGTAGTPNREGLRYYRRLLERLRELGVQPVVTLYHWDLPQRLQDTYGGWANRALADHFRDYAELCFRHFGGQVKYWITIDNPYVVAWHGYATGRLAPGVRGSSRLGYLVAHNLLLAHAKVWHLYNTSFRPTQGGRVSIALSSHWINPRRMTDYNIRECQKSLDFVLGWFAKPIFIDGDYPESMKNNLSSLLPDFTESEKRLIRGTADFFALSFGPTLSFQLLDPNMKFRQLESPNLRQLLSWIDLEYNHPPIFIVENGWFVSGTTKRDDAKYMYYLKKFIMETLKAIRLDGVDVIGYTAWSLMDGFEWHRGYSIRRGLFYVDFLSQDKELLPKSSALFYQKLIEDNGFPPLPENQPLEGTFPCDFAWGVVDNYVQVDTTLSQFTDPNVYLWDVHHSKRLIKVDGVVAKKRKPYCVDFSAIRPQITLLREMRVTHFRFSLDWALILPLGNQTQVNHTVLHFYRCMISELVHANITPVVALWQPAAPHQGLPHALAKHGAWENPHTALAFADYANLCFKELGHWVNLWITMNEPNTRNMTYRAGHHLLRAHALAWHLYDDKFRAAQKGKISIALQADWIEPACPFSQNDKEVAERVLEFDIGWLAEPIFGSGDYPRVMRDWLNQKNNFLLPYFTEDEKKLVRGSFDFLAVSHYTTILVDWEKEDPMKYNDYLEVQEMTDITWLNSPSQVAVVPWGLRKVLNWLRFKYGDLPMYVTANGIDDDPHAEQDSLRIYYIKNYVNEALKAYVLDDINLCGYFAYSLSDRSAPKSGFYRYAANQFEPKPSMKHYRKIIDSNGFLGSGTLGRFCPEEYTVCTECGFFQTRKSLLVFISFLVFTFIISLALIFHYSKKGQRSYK

CSCC[C@@H]1NC(=O)[C@H](CO)NC(=O)[C@@H](NC(=O)[C@H](CCC(N)=O)NC(=O)[C@H](CCCNC(=N)N)NC(C)=O)CSCc2c(C)c(=O)n3c(=O)c(C)c(n23)CSC[C@@H](C(=O)N[C@@H](Cc2ccccc2)C(=O)N[C@@H](Cc2ccc(O)cc2)C(=O)N[C@@H](Cc2c[nH]cn2)C(=O)N[C@@H](CO)C(=O)N[C@@H](CCCCN)C(N)=O)NC(=O)[C@H]([C@@H](C)O)NC1=O — Kd (Proliferating cell nuclear antigen (PCNA, Homo sapiens, UniProt P12004); binding, SPR): 0.57 µM
CC[C@H](C)[C@H](NC(=O)CNC(C)=O)C(=O)N[C@@H](CCCNC(=N)N)C(=O)N[C@@H](CCC(=O)O)C(=O)N[C@@H](C)C(=O)N[C@H](C(=O)N[C@@H](CC(C)C)C(=O)N[C@@H](CCCNC(=N)N)C(=O)N[C@@H](C)C(=O)N[C@@H](Cc1c[nH]c2ccccc12)C(=O)N[C@@H](CCC(=O)O)C(=O)N[C@@H](CCCNC(=N)N)C(=O)N[C@@H](CCCNC(=N)N)C(=O)N[C@@H](Cc1ccc(O)cc1)C(=O)NCC(=O)N[C@@H](Cc1ccccc1)C(=O)N1CCC[C@H]1C(=O)N[C@@H](CCCNC(=N)N)C(=O)N1CCC[C@H]1C(=O)N[C@@H](CC(C)C)C(=O)N[C@@H](CCCNC(=N)N)C(=O)N[C@@H](CO)C(=O)N[C@@H](CCC(=O)O)C(N)=O)[C@@H](C)O — Kd (Antirepressor protein CarS (carS, Myxococcus xanthus, UniProt Q06911); isothermal titration calorimetry; pH 7.5, 20 °C): 0.175 ± 0.019 µM
CC(C)C[C@H](NC(=O)[C@@H]1CCCN1C(=O)[C@H](CCCCN)NC(=O)c1ccc(O[C@@H]2O[C@H](CO)[C@H](O)[C@H](O)[C@H]2O)cc1)C(=O)NCCCC[C@H](NC(=O)[C@H](CC(C)C)NC(=O)[C@@H]1CCCN1C(=O)[C@H](CCCCN)NC(=O)c1ccc(O[C@@H]2O[C@H](CO)[C@H](O)[C@H](O)[C@H]2O)cc1)C(=O)N[C@@H](Cc1ccccc1)C(=O)N[C@@H](CS)C(N)=O — Kd (PA-I galactophilic lectin (lecA, Pseudomonas aeruginosa, UniProt Q05097); binding, ITC; pH 7.5): 0.164 µM
CC(C)C[C@H](NC(=O)[C@H](CCCNC(=N)N)NC(=O)[C@H](CCC(=O)O)NC(=O)[C@H](CCCCN)NC(=O)[C@H](CCCNC(=N)N)NC(=O)[C@H](CCCCN)NC(=O)[C@H](CCC(=O)O)NC(=O)[C@H](CC(C)C)NC(=O)[C@H](Cc1ccccc1)NC(=O)[C@H](CCCNC(=N)N)NC(=O)[C@H](C)NC(=O)[C@H](CC(C)C)NC(=O)[C@H](CO)NC(=O)[C@H](C)NC(=O)[C@H](CCCCN)NC(=O)[C@H](CCCNC(=N)N)NC(=O)[C@H](C)NC(=O)[C@H](CCC(N)=O)NC(=O)[C@@H]1CCCN1C(=O)[C@@H](NC(=O)[C@H](CO)NC(=O)c1ccc2c(c1)C(=O)OC21c2ccc(N(C)C)cc2Oc2cc(N(C)C)ccc21)C(C)C)C(=O)O — Kd (Transcription factor MYC2 (MYC2, Arabidopsis thaliana, UniProt Q39204); binding, fluorescence anisotropy; pH 8.0, MYC2 residues 55-259): 3.6 ± 0.8 µM
CC(C)CC(NC(=O)C(NC(=O)NC(C(=O)O)C(C)C)C1CCNC(=N)N1)C(=O)NCCCNC(C(=O)O)C(OC1OC(CN)C(O)C1O)C1OC(n2ccc(=O)[nH]c2=O)C(O)C1O (stereo not drawn) — Kd (Phospho-N-acetylmuramoyl-pentapeptide-transferase (mraY, Aquifex aeolicus, UniProt O66465, T75A); binding, ITC): 0.0274 µM
CC[C@H](C)[C@H](NC(=O)[C@@H](NC(=O)[C@H](C)NC(=O)[C@H](CCC(=O)O)NC(=O)[C@H](CO)NC(=S)Nc1ccc2c(c1)C(=O)OC21c2ccc(O)cc2Oc2cc(O)ccc21)C(C)C)C(=O)N[C@H](C(=O)N[C@H](C(=O)N1CCC[C@H]1C(=O)N[C@@H](Cc1ccccc1)C(=O)N[C@@H](CC(C)C)C(=O)N[C@H](C(=O)N[C@@H](CC(N)=O)C(=O)N[C@@H](CC(C)C)C(=O)O)[C@@H](C)O)[C@@H](C)CC)C(C)C — Kd (Rgg transcriptional regulator (Streptococcus pneumoniae, UniProt A0A0E7KI02); binder, fluorescence polarization; 20 min, pH 7.4, 20 °C, fluorescein-labelled peptide): 50 ± 3.6 µM
CC[C@H](C)[C@H](N)C(=O)NCC(=O)N[C@@H](Cc1c[nH]cn1)C(=O)N[C@@H](CO)C(=O)N1CCC[C@H]1C(=O)N1CCC[C@H]1C(=O)N1CCC[C@H]1C(=O)N[C@@H](C)C(=O)N[C@@H](Cc1ccc(O)cc1)C(=O)N[C@H](C(=O)N1CCC[C@H]1C(=O)N[C@@H](CCSC)C(=O)N[C@@H](CO)C(=O)O)[C@@H](C)O — Kd (WW domain-containing oxidoreductase, WW1-WW2 tandem domains (WWOX, Homo sapiens, UniProt Q9NZC7); ITC; tandem WW1-WW2 domain; pH 7.8, 20 °C, some values lower limits only): > 100 µM
COc1ccc(-c2cnc3[nH]cc(C#Cc4cccnc4)c3c2)cc1OC — Kd (Cyclin-G-associated kinase (GAK, Homo sapiens, UniProt O14976); binding): 0.28 µM
CC(C)P(=S)(NP(=[Se])(C(C)C)C(C)C)C(C)C — Kd (Alpha-amylase (Bacillus subtilis, UniProt P00691); fluorescence quenching; 298 K): 434 µM
CCCCCCCC(=O)N[C@@H](CCCCNS(=O)(=O)c1cccc2c(N(C)C)cccc12)C(=O)N[C@H](C(=O)N[C@@H](CCN)C(=O)N[C@H]1CCNC(=O)[C@H]([C@@H](C)O)NC(=O)[C@H](CCN)NC(=O)[C@H](CCN)NC(=O)[C@H](CC(C)C)NC(=O)[C@@H](Cc2ccccc2)NC(=O)[C@H](CCN)NC1=O)[C@@H](C)O — Kd (Escherichia coli lipopolysaccharide; isothermal titration calorimetry; pH 7.0, 37 °C, first binding site set): 192 ± 15 µM
CC(C)C[C@H](NC(=O)[C@H](C)N)C(=O)N[C@H](C(=O)N[C@@H](CCCNC1=NC(=O)C(C)N1)C(=O)N[C@@H](CCC(=O)O)C(=O)N[C@@H](Cc1ccc(O)cc1)C(=O)N[C@H](C(=O)NCC(=O)O)[C@@H](C)O)[C@@H](C)O (stereo partly drawn) — Kd (Advanced glycosylation end product-specific receptor (AGER, Homo sapiens, UniProt Q15109); binding, fluorescence; pH 6.5): 0.044 µM
CC(C)C[C@H](NC(=O)[C@H](Cc1c[nH]c2ccccc12)NC(=O)[C@H](CCCCN)NC(=O)[C@H](CCC(=O)O)NC(=O)[C@@H]1CCCN1C(=O)[C@@H](N)CS)C(=O)NCC(=O)N[C@H](C(=O)N[C@@H](CS)C(=O)O)[C@@H](C)O — Kd (Small ubiquitin-related modifier 1 (Homo sapiens, UniProt P63165); binding, ITC): 0.123 µM
CC(C)(O)[C@H]1O[C@H]2CC[C@@]3(C)[C@@](O)(CC[C@H]4Cc5c([nH]c6ccccc56)[C@@]43C)C2=CC1=O — Kd (Kcnma1 (Mus musculus, UniProt Q08460); BK channel current, inhibitor, inside-out patch clamp; Xenopus oocytes; closed channel affinity): 0.0118 µM
CC[C@H](C)[C@@H]1NC(=O)[C@H](CCCNC(=N)N)NC(=O)[C@@H]2CCCN2C(=O)[C@H](C(C)C)NC(=O)[C@H](CO)NC(=O)[C@H]([C@@H](C)O)NC(=O)CNC(=O)[C@H](CC(=O)O)NC(=O)[C@@H](NC(=O)[C@@H](N)C(C)C)CSSC[C@@H](C(=O)N[C@H](C(=O)O)C(C)C)NC1=O — Kd (Activin receptor type-2B, extracellular domain (ACVR2B, Homo sapiens, UniProt Q13705); binding, surface plasmon resonance; 22 °C, 1% DMSO): > 100 µM
Nc1ncnc2c1ncn2C1OC(CSCCCCNCc2cccc(-c3ccc(Cl)cc3)c2)C(O)C1O (stereo not drawn) — Kd (DNA adenine methyltransferase CamA (Clostridioides difficile, UniProt Q183J3); binding, isothermal titration calorimetry; 25 °C, 10% DMSO, reverse titration): 6 µM
CC[C@H](C)[C@H](NC(=O)[C@H](CCC(N)=O)NC(=O)[C@H](CO)NC(=O)[C@H](CC(C)(C)C)NC(=O)[C@H](CCC(=O)O)NC(=O)[C@H](CCC(=O)O)NC(=O)[C@H](CC(=O)O)NC(=O)[C@@H]1CCSCc2cccc(c2)CSCC[C@H](NC(=O)[C@H](C)NC(=O)[C@H](CC(=O)O)NC(=O)[C@H](CC(=O)O)NC(=O)[C@H](CCCNC(=N)N)NC(=O)CCNC(=O)CCNC(=O)CCCC[C@@H]2SC[C@@H]3NC(=O)N[C@@H]32)C(=O)N[C@@H](Cc2ccc3ccccc3c2)C(=O)N[C@@H](CC(=O)O)C(=O)N[C@@H]([C@@H](C)CC)C(=O)N[C@@H]([C@@H](C)CC)C(=O)N1)C(=O)N[C@@H](CCC(N)=O)C(=O)N[C@@H](CCC(=O)O)C(=O)N[C@@H](Cc1c[nH]c2ccccc12)C(N)=O — Kd (Gamma-aminobutyric acid receptor-associated protein (Homo sapiens, UniProt O95166); binding, BLI; pH 7.4): 1.4 µM
CC(=O)N[C@@H](Cc1ccc(O)cc1)C(=O)N[C@@H](CC(N)=O)C(=O)N1CCC[C@H]1C(=O)N[C@@H](Cc1ccccc1)C(=O)N[C@@H](CCC(=O)O)C(=O)N[C@@H](CCC(=O)O)C(=O)NCC(=O)NCC(N)=O — Kd (EH domain-containing protein 1 (Homo sapiens, UniProt Q9H4M9); binding, ITC): 35.7 µM
CC(C)C[C@H](NC(=O)[C@@H]1CCCN1C(=O)[C@H](CC(=O)O)NC(=O)[C@H](CO)NC(=O)[C@H](C)NC(=O)c1cc(-c2ccccc2)nc2ccccc12)C(=O)NCC(=O)N[C@H](C(=O)N[C@H](C(=O)N[C@@H](CCCNC(=N)N)C(=O)NCC(=O)N[C@@H](CCCNC(=N)N)C(=O)N[C@@H](C)C(=O)N[C@@H](CCCNC(=N)N)C(=O)N[C@H](CCCNC(=O)CCOCCOCCOCCOCCNC(=O)CCCC[C@@H]1SC[C@@H]2NC(=O)N[C@@H]21)C(N)=O)C(C)C)C(C)C — Kd (Klotho (Kl, Mus musculus, UniProt O35082); binding, biolayer interferometry): 0.001 ± 0.0003 µM

For quick reference, copied from above:
CC[C@H](C)[C@H](NC(=O)CNC(C)=O)C(=O)N[C@@H](CCCNC(=N)N)C(=O)N[C@@H](CCC(=O)O)C(=O)N[C@@H](C)C(=O)N[C@H](C(=O)N[C@@H](CC(C)C)C(=O)N[C@@H](CCCNC(=N)N)C(=O)N[C@@H](C)C(=O)N[C@@H](Cc1c[nH]c2ccccc12)C(=O)N[C@@H](CCC(=O)O)C(=O)N[C@@H](CCCNC(=N)N)C(=O)N[C@@H](CCCNC(=N)N)C(=O)N[C@@H](Cc1ccc(O)cc1)C(=O)NCC(=O)N[C@@H](Cc1ccccc1)C(=O)N1CCC[C@H]1C(=O)N[C@@H](CCCNC(=N)N)C(=O)N1CCC[C@H]1C(=O)N[C@@H](CC(C)C)C(=O)N[C@@H](CCCNC(=N)N)C(=O)N[C@@H](CO)C(=O)N[C@@H](CCC(=O)O)C(N)=O)[C@@H](C)O — Kd (Antirepressor protein CarS (carS, Myxococcus xanthus, UniProt Q06911); isothermal titration calorimetry; pH 7.5, 20 °C): 0.175 ± 0.019 µM
CC(C)C[C@H](NC(=O)[C@@H]1CCCN1C(=O)[C@H](CCCCN)NC(=O)c1ccc(O[C@@H]2O[C@H](CO)[C@H](O)[C@H](O)[C@H]2O)cc1)C(=O)NCCCC[C@H](NC(=O)[C@H](CC(C)C)NC(=O)[C@@H]1CCCN1C(=O)[C@H](CCCCN)NC(=O)c1ccc(O[C@@H]2O[C@H](CO)[C@H](O)[C@H](O)[C@H]2O)cc1)C(=O)N[C@@H](Cc1ccccc1)C(=O)N[C@@H](CS)C(N)=O — Kd (PA-I galactophilic lectin (lecA, Pseudomonas aeruginosa, UniProt Q05097); binding, ITC; pH 7.5): 0.164 µM
CC(C)C[C@H](NC(=O)[C@H](CCCNC(=N)N)NC(=O)[C@H](CCC(=O)O)NC(=O)[C@H](CCCCN)NC(=O)[C@H](CCCNC(=N)N)NC(=O)[C@H](CCCCN)NC(=O)[C@H](CCC(=O)O)NC(=O)[C@H](CC(C)C)NC(=O)[C@H](Cc1ccccc1)NC(=O)[C@H](CCCNC(=N)N)NC(=O)[C@H](C)NC(=O)[C@H](CC(C)C)NC(=O)[C@H](CO)NC(=O)[C@H](C)NC(=O)[C@H](CCCCN)NC(=O)[C@H](CCCNC(=N)N)NC(=O)[C@H](C)NC(=O)[C@H](CCC(N)=O)NC(=O)[C@@H]1CCCN1C(=O)[C@@H](NC(=O)[C@H](CO)NC(=O)c1ccc2c(c1)C(=O)OC21c2ccc(N(C)C)cc2Oc2cc(N(C)C)ccc21)C(C)C)C(=O)O — Kd (Transcription factor MYC2 (MYC2, Arabidopsis thaliana, UniProt Q39204); binding, fluorescence anisotropy; pH 8.0, MYC2 residues 55-259): 3.6 ± 0.8 µM
